Measured values gathered from unrelated publications.
Every numbered part comes from another study and shows a few of its results, in no order.

Series 1 — method: RNA Bind-n-Seq; form: RNA; medium: in vitro; tested at: 200 nM; notes: whole 134-nt RNA, ends assumed; with: 150 mM KCl; baseline: input library; direction: higher = stronger binding
Target: Fragile X messenger ribonucleoprotein 1, C-terminal low-complexity region (Fmr1, Mus musculus, UniProt P35922)
All sequences stand within: GGGAGUUCUACAGUCCGACGAUC … UGGAAUUCUCGGGUGUCAAGG
Sequence	log2 enrichment
AAGUCCUGUGCUACACAUCGUAUGUACCGAAUCGGUUUUGGGGUUUUGGUUUUGGGGAAAGUAUUAUGUUACGCCGUUCGGAUCUGCACU	-0.229
UAACUUUAGGGGAGGAUCUGAUGGAUAUGGCAGUGGACGUGGAUUUGGGGAUGGCUAUAAUGGGUAUGGAGGAGGACCUGGAGGUGGCAA	0.349
UCAAGUCCUGUGCUACACAUCGUAUGUACCGAAUCGGAGGAAAAAGGAAAAAGGAAAGUAUUAUGUUACGCCGUUCGGAUCUGCACUUCC	-0.848
CCUGUGCUACACAUCGUAUGUACCGAAUCAAACCCCCCCAAACCCCCAAAUUUUUUUAAAAAAGUAUUAUGUUACGCCGUUCGGAUCUGC	-0.0528
UGGAAUAAGCCUGGUGCUUUCUGGCUAUGUUUGUCAUAGGCUGACCUGGAUAUCACCGAAAUAAACAAACUAACAGCAGAAGCUAUUCAG	-0.429
UAACUUUAGUGGAGGAUCUGAUGGAUAUGGCAGUGGACGUGGAUUUGGGGAUGGCUAUAAUGGGUAUGGAGGAGGACCUGGAGGUGGCAA	0.284
GUCCUGUGCUACACAUCGUAUGUACCGAAUCGGUUUUUUGGGUUUUUUGGUUUUUUGGGAAAGUAUUAUGUUACGCCGUUCGGAUCUGCA	-0.84
AAGUCCUGUGCUACACAUCGUAUGUACCGAAUCGGGUUUUUUUGGGAGGGUUUGGGAAAGUAUUAUGUUACGCCGUUCGGAUCUGCACUU	0.497
UCAAGUCCUGUGCUACACAUCGUAUGUACCGAAUCGGCCCGGCCCGGGGCCCGGAAAGUAUUAUGUUACGCCGUUCGGAUCUGCACUUCC	-0.493

Series 2 — method: protein binding microarray; form: double-stranded DNA, one strand shown; medium: in vitro; tested at: not given; baseline: not given; direction: higher = stronger binding
Target: Histone acetyltransferase KAT6A, winged helix 2, GST fusion (KAT6A, Homo sapiens, UniProt Q92794, residues 85-181)
Notes: 8-mer, flanks averaged, mean of 2 arrays, mostly near background
Target sequence (chain): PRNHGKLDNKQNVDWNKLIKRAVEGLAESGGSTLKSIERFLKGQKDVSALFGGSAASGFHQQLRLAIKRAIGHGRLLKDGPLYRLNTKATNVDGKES
Sequence	E-score
ACGTCTGC	-0.126
ACAAGAAC	0.126
GTATGGGA	-0.129
AGGATCCC	-0.108
ATATTCAA	0.0535
CGCTGACA	0.106
ACATTCAG	-0.285
AATCATGC	-0.041
ATAGCCTA	0.0622
CCTTAGCC	0.0386
GCTCACCA	0.111
GTGCGGCA	0.102
GAAACCAA	0.00856
TGTGTAAA	0.102
CTGTAACC	-0.01
AGAAGTGA	-0.156
ACACTTGC	-0.0438
CGGTATAC	-0.111
GAGTCAAA	0.0146
GTGACGCA	0.0743
GTTCTTCA	0.0559
CACCAACG	-0.0516

Series 3 — target: UBE2N UBC core domain (UniProt P61088); method: yeast two-hybrid; medium: yeast; notes: mostly zero background; baseline: not given; direction: higher = stronger interaction
B1: TRIM34 RING domain (UniProt Q9BYJ4); chain ILLNVQEEVTCPICLELLTEPLSLDCGHSLCRACITVSNKEAVTSMGGKSSCPVCGISYSFEHLQA
B2: TRIM28 RING domain (UniProt Q13263); chain GAEALELLEHCGVCRERLRPEREPRLLPCLHSACSACLGPAAPAAANSSGDGGAAGDGTVVDCPVCKQQCFSKDIVE
B3: MDM2 RING domain (UniProt Q00987); chain TQDKEESVESSLPLNAIEPCVICQGRPKNGCIVHGKTGHLMACFTCAKKLKKRNKPCPVCRQPIQMIVLTYFP
B4: RFPL3 RING domain (UniProt O75679); chain MAALFQEASSCPVCSDYLEKPMSLECGCTVCLKCINSLQKEPHGEDLLCCCCSMVSQRNKIRP
B5: RNF115 RING domain (UniProt Q9Y4L5); chain TQEQVDMGLECPVCKEDYTVEEEVRQLPCNHFFHSSCIVPWLELHDTCPVCRKSLNGEDSTR
B6: RNF130 RING domain (UniProt Q86XS8); chain DKETDPDFDHCAVCIESYKQNDVVRILPCKHVFHKSCVDPWLSEHCTCPMCKLNILKALGIV
B7: TRIM74 RING domain (UniProt Q86UV6); chain SLLELEDWLQCPICLEVFKESLMLQCGHSYCKGCLVSLSYHLDTKVRCPMCWQVVDGSSSLP
B8: TRIM32 RING domain (UniProt Q13049); chain NLDALREVLECPICMESFTEEQLRPKLLHCGHTICRQCLEKLLASSINGVRCPFCSKITRITSLTQ
B9: RMND5B RING domain (UniProt Q96G75); chain MKCWYHSVFACPILRQQTSDSNPPIKLICGHVISRDALNKLINGGKLKCPYCPMEQNPADGK
Residues (chain): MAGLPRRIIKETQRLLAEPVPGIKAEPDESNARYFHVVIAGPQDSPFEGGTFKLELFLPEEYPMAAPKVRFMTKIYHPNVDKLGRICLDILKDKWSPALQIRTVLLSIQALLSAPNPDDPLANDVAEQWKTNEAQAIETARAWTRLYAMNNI
Sequence	lacZ reporter activity
AAQLLEEKLTCAICLGLYQDPVTLPCGHNFCGACIRDWWDRCGKACPECREPFPDGAELR (TRIM65 RING domain (UniProt Q6PJ69))	0
EDVLSKDAGECAICLEELQQGDTIARLPCLCIYHKGCIDEWFEVNRSCPEHPSD (ZNRF2 RING domain (UniProt Q8NHG8))	14000
EIKDYKARLTCPCCNMRKKDAVLTKCFHVFCFECVKTRYDTRQRKCPKCNAAFGANDFHR (RNF20 RING domain (UniProt Q5VTR2))	0
B1 (TRIM34 RING domain)	0
B2 (TRIM28 RING domain)	0
B3 (MDM2 RING domain)	0
B4 (RFPL3 RING domain)	0
VPADASPDSKCPICLDRFDNVSYLDRCLHKFCFRCVQEWSKNKAECPLCKQPFDSIFHSV (TOPORS RING domain (UniProt Q9NS56))	2190
B5 (RNF115 RING domain)	0
B6 (RNF130 RING domain)	13400
B7 (TRIM74 RING domain)	0
B8 (TRIM32 RING domain)	11200
B9 (RMND5B RING domain)	0

Series 4 — method: RNA Bind-n-Seq; form: RNA; medium: in vitro; tested at: not given; baseline: input RNA pool; direction: higher = stronger binding
Target: RING finger protein unkempt homolog, zinc fingers 1-6, GST-SBP tag (UNK, Homo sapiens, UniProt Q9C0B0, residues 30-357)
Notes: RNA with constant flanks, human-mouse chimeric sites, ends assumed
All sequences stand within: GGGAGUUCUACAGUCCGACGAUC … CAACAGAGGAUUGAGCAUCA
Target sequence (chain): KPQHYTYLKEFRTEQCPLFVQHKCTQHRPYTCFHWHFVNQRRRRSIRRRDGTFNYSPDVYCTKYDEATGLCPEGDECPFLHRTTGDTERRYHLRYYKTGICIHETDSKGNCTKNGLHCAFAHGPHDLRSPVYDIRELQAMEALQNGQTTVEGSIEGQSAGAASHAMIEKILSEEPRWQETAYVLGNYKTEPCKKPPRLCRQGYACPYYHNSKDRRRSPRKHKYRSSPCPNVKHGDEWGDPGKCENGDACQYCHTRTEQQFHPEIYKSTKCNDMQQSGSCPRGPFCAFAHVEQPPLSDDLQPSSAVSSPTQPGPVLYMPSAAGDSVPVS
Sequence	bound/input enrichment
CUGAAAAACACAGAUAUCAAAGUUGUUGAUUUUGGAAGUGCAACGUAUGAUGAUGAACAUCACAGUACUUUGGUGUCUACCCGGCACUACAGAGCUCCCGAGGUCAUUUUGGCUUUAGGU	0.505 ratio
UGACAAGGGCACUGCAGAGCCAUGCCUUUCCUUGACAUACAGAAAAAGCUGGGCAUCAGCCUGGACCGGCACUUUAUGUUCCUAAGCGGUGAACAGCCCUAUAAGAACGCCGCUCGGUGC	0.0876 ratio
GAAACAUUUAAAUUUAAAGAAGCUGUUGUUCUAGGAAGUACGGACUUUCUAGAAGAUGAUAUAGAAAAAAUUGUAGAAGAACUGGGGAAAGAGUAUAAGGGCAACGCCUACCAUCUGAUG	1.83 ratio
AAAUCGUGUGUGUCCAAUAUUGAAAGUACUUUAUCUGCACUCCAGUAUGUAAGCAGUAUAGUAGUUUCUUUAGAGAAUAGGUCAGCCAUUGUAAAGUACAAUGCAAGCUCAGUCACUCCA	9.24 ratio
UAAGUCCUGUGCCAGCACUUCGCUCAUAAAGUUUUAAAUUCUGGACCAAUAGUGUUUAUCUUUAGAAUAUUGUAUCCAAUACUUUGCCUAGUAUGUAACUCACUCUUCUGGAUAAAUAAA	22.4 ratio
GGUGGGGUGGUCAUUGCCGUUUGAGCUCUGCUGAUUCAUGAGUCGCCUUCAAAACUCUCGUGUAGGGUUGACAAUGUAAGGGGUGGGGGGAUCCAGCUUAUUCUUUUAUUUUCAAGUCCA	0.826 ratio
GCGGCAGAAUCAUGGAGGACAUAAUGCAGCUCCCCAAAGCGCGCGUCAACGCCGGCAUGUUACCACAGUAUAUCGACCGGCCCGUGUGCUUCGUAGGGAAGCUGGAAAAGAUUCAUCCCA	0.0943 ratio
CACUCGAGGGCUGCCGUCCGUUCUCACUCCCUGGGCUGCGGAAAGCCAGAAGAUUUUAUCUAGCUUAUACAAGGCUGCUGGUGUUCCCUCUUUUUUUCCACGAGGGUGUUUUUGGCUGCA	0.323 ratio
